Assay results of several laboratories.
Every numbered part comes from another study and shows a few of its results, in no order.

Block 1 — read-out: peptide binding; molecule type: peptide; sample: yeast competitive growth; added: B2-Cln2 chimera; reading: direction not given
| Sequence | enrichment score |
| --- | --- |
| VKTKKRLNFDDK | -0.795 |
| HRRRLLFACSPPPASQ | -1.67 |
| IPDRSTKPVVFSPT | 0.406 |
| RRRRLLFWDKETQI | -1.26 |

Block 2 — technique: RNA Bind-n-Seq; molecule type: RNA; sample: in vitro; concentration: 365 nM; relative to: no-protein control; reading: higher = stronger binding
Target: RNA binding protein fox-1 homolog 2, RRM domain, GST-SBP tag (RBFOX2, Homo sapiens, UniProt O43251-10, residues 100-194)
Notes: natural RNA segment, single round, ends assumed
All sequences stand within: GGGAGUUCUACAGUCCGACGAUC … UGGAAUUCUCGGGUGCCAA
Target sequence (chain): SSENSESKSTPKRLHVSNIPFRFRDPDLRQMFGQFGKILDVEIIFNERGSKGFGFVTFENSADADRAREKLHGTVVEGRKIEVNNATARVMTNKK
| Strand | RBNS enrichment (R) |
| --- | --- |
| UGAAAUAACUGCGAUUUUGUGAGCAAAACAUACUUGGAAAUGCUGAUUGAUUUUUAUGCUUGUUAGUGUAUUGCAAGAAACACAGAAAAUGUAGUUUUGUUUUAAUAAAC | 0.81 |
| AACUGAUACAUAGAACCAAGGAGCACUCAAAUAGGGAGCCAGGAGCCAGGGAGCUGGUGACACUUGUGUGCUGUGGGGCAGCUGGGAUCCAGGUAAGACCGGAUUGAAGC | 0.362 |
| ACAUUUUUCAUUCUCUCUGGAAACAGACUCAGGUUUCUUUGGACCAAAUCCAAAAGAACACAUAGCUGUAACACAGCUGUAGUUGACUAGAAUGCUCUGUAUACUUUAUA | 0.333 |
| CCAGGUCACGUGUAGGACGUGCUUAUCCAGUUUUUUCCCCCUUUACCUGCAUAGUUGCUACAUACAUGUUUCUCACUGUAAAAGGCUGCCGCUGGGUGGCAGAAGCCAAA | 0.469 |
| UCGUCUCUUACAUACUCUCAUCUUCUCCCCCGCUCCCUUCCACUCCAAGGAGCGAGGAGGGCAAGCGGCCUCCCAGCUCCCUGGUACCUCGAGGCACCAUUCCAGCCAGG | 0.607 |
| AUAUACAGGAUAGCCUAAUUUUAUUUGUUUAAAUAUGCUUAAUAUGCCCCAGAUUGCAAAUGCAUCCAGUCAGUAAUAUCACUGUCUGUAUGUGGAGGACAUGUUCCCAU | 0.394 |
| AUACAUUUAAAAAAAUACUACUUUUUAAAUGGUAGUUUUAAAAUAACAGUAUCUUACUUGUUGCCAUUGAAAAAAGAAUCCAACUUUUCACUUUCAAAAAUGGCUAUAUA | 0.516 |
| GACUCCCUUACACAGUAUUGAUCUUCUGACUGUGGAAACAACCUUCCUCUCACUUUCACACCUUUAAUUUAAAUCUAUUUAAGAGAACCAUGGUUCUGAUUGUUGUGUAU | 0.533 |
| AUAAUAAUAACCUGUUUUCUGGUUGUUGUUGGGGCAUGAGCUUGUGUAUACACUGCUUGCAUAAACUCAACCAGCUGCCUUUUUAAAGGGAGCUCUAGUCCUUUUUGUGU | 0.244 |
| AGUGUGGAGGCUGAGCUGGUGCCUGGCCCCAGUCUUAUCUGUGCCUUUACUGCUUUGCGCAUCUCAGAUGCUAACUUGGUUCUUUUUCCAGAAGCCUUUGUAUUGGUUAA | 0.268 |
| GGAACAGGGGAAGGGGAAUGUUUUCAAGACAUUUAUCCUGUUAGAAAAUCUUACAGACUAGCUUUAGGAACAUAGUGUCAAACAAAGCUGCUGCUUUAGUCUUCUUUUCU | 0.299 |
| AGCCAAGCCUAUCCAGCUAACAAGAGCUCCCUGGGGCUGGUCACAGCUGGCUCAUGAUGCUGAACUUGAAAGUUUUUUUGUUUUUGUUUUUGUUUUGUGGCUCCUCCAAG | 1.1 |

Block 3 — technique: protein-binding microarray; molecule type: double-stranded DNA, one strand shown; sample: in vitro; concentration: 250 nM; notes: 60-bp whole probe; added: salmon DNA 0.4 mg/ml; relative to: random background probes; reading: higher = stronger binding; all sequences stand within: GCCTAGCAC … GTCTTGATTCGCTTGACGCTGCTG
Target: Interferon regulatory factor 5, full length, phosphomimetic (IRF5, Homo sapiens, UniProt Q13568-2, residues 1-514, K96S/S451D/S453D/S456D/S462D)
| Strand | log fluorescence [z-score] |
| --- | --- |
| GACGATATCAGAATGGAGACGTGCTAG | 0.481 |
| TTGGTTTTCCTTATTGCTTCGTGCTAG | 1.2 |
| TCACATATTCTCTTCTTACTGTGCTAG | 0.967 |
| TCAGCTTTAGTCATTCACACTGTGCTA | 0.102 |
| GACCGTTTCGGTTCCGGGACGTGCTAG | 9.56 |
| GTGTTTGTCCCTATTTAAGAGTGCTAG | 0.375 |
| GACGGTTTCGACGCTGGGGACGTGCTA | 3.87 |
| TTAGGTATCCTTTTCGTTTAGTGCTAG | 1.58 |
| CACGGTATCGACTATCGGGACGTGCTA | 3.88 |
| GACGGAGTGCTTTTCCTGACGTGCTAG | -0.213 |
| GACGTTTCCGGTTTCGGGACGTGCTAG | 5.16 |
| GACGGTACCCTTATCCTGACGTGCTAG | -0.177 |
| TTAGATTTCAGTTTCGATGAGTGCTAG | 10 |
| GTGACAGTTTTATTTTAGTTGGTGCTA | 0.883 |
| GTCAGCGGTGGTGTTCGGTGGTGCTAG | -0.333 |
| GACGGTCCCCTACTGCTGACGTGCTAG | -0.513 |
| GACGGTTTCGGTTCCGCGACGTGCTAG | 9.67 |
| AACGAACTGAGTATCGAGACGTGCTAG | 2.09 |
| GACGGACTGCTACTGCTCACGTGCTAG | -0.69 |
| TCAATAATGGATATATAACTGTGCTAG | 0.487 |
| GACGGTATGGACACTGGGGACGTGCTA | -0.0786 |
| TTAGGTTTCAGTCTCGGTTAGTGCTAG | 5.03 |
| TTAGGACTGCTACAGCTTTAGTGCTAG | -0.437 |
| AACATACTGATTTCCACTTTGTGCTAG | 0.674 |
| CTAGGACTGCTTCTCCTTTAGTGCTAG | -0.43 |

Block 4 — technique: protein binding microarray; molecule type: double-stranded DNA, one strand shown; sample: in vitro; concentration: not given; relative to: not given; reading: higher = stronger binding
Target: Histone acetyltransferase KAT6A, both winged helices, GST fusion (KAT6A, Homo sapiens, UniProt Q92794, residues 1-181)
Notes: 8-mer, flanks averaged, mean of 2 arrays, mostly near background
Construct (chain): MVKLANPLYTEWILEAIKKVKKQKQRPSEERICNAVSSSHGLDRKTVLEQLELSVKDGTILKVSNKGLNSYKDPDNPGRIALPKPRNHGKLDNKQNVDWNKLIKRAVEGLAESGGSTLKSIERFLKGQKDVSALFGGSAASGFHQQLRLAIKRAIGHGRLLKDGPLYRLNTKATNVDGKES
| Strand | E-score |
| --- | --- |
| ACAACACG | 0.0819 |
| CCCTCTGC | -0.185 |
| ACCAACCC | -0.133 |
| GCGGAAGA | 0.142 |
| GCTGCAAA | -0.0256 |
| ACGAATGC | 0.0143 |
| ACCATTCT | -0.216 |
| CTTTAGAA | 0.0377 |
| GAATGATA | 0.02 |
| CGTACCCC | 0.171 |
| AATGCACA | 0.00392 |
| ACGCGGCA | 0.326 |
| ACCTACGC | 0.0746 |
| TCGGCCCA | 0.143 |
| AGGAACAG | -0.251 |
| ACTCTGGG | -0.183 |
| CCAGACCA | -0.189 |
| TAGTATGA | -0.132 |
| CTCCTCAA | -0.0938 |

Block 5 — technique: RNA Bind-n-Seq; molecule type: RNA; sample: in vitro; concentration: 1 µM; notes: whole 134-nt RNA, ends assumed; added: 150 mM KCl; relative to: input library; reading: higher = stronger binding
Target: Ras GTPase-activating protein-binding protein 1, C-terminal RGG region (G3BP1, Homo sapiens, UniProt Q13283)
Chain of UniProt Q13283 (whole entry, looked up): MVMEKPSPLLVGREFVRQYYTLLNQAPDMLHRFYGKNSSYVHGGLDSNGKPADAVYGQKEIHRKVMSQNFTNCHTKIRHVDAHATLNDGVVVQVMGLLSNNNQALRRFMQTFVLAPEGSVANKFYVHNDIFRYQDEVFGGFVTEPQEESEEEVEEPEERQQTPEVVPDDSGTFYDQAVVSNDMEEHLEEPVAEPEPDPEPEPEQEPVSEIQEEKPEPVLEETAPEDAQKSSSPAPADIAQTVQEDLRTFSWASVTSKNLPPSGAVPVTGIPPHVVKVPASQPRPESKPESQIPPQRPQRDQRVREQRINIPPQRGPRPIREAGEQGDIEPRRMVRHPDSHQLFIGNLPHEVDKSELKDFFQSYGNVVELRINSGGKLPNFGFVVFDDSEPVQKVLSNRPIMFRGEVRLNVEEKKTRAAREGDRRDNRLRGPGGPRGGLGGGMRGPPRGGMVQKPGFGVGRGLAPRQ
All sequences stand within: GGGAGUUCUACAGUCCGACGAUC … UGGAAUUCUCGGGUGUCAAGG
| Strand | log2 enrichment |
| --- | --- |
| AAGUCCUGUGCUACACAUCGUAUGUACCGAAUCGGGAAAAGGGAAAAGGAAAAGGGAAAGUAUUAUGUUACGCCGUUCGGAUCUGCACUU | -1.69 |
| CUGUGCUACACAUCGUAUGUACCGAAUCGGGGAAAAAAAGGGAAAAAAAGGAAAAAAAGGGGAAAGUAUUAUGUUACGCCGUUCGGAUCU | -1.28 |
| CUCAAGUCCUGUGCUACACAUCGUAUGUACCGAAUCGGUUUUUGGAGGAAAGGAAAGUAUUAUGUUACGCCGUUCGGAUCUGCACUUCCA | -1.1 |
| UAACUUUAGAGGAGGAUCUGAUGGAUAUGGCAGUGGACGUGGAUUUGGGGAUGGCUAUAAUGGGUAUGGAGGAGGAUCUGGAGGUGGCAA | -0.201 |
| GCCACUGUUCACCAGUCCUACCCACACCAUGCCACACAGCUCCAUGCCCACCAGCCGCAGCCGGCUACCACGCCUACUGGAAGCCAGCCG | -0.409 |
| CCUGUGCUACACAUCGUAUGUACCGAAUCGGGUUUUUUUGGGUUUUUGGGAAAAAAAGGGAAAGUAUUAUGUUACGCCGUUCGGAUCUGC | -1.83 |
| GUCCUGUGCUACACAUCGUAUGUACCGAAUCGGCCCCCCGGCCCCCCGGCCCCCCGGGGAAAGUAUUAUGUUACGCCGUUCGGAUCUGCA | -1.29 |
| AGUCCUGUGCUACACAUCGUAUGUACCGAAUCGGUUUUUUUGGAAAAAGGUUUUUGGAAAGUAUUAUGUUACGCCGUUCGGAUCUGCACU | -2.42 |
| CUGUGCUACACAUCGUAUGUACCGAAUCGGGGAAAAAAAGGGGUUUGGGGAAAAAAAGGGGAAAGUAUUAUGUUACGCCGUUCGGAUCUG | 0.0246 |
| UCAAGUCCUGUGCUACACAUCGUAUGUACCGAAUCGGAGGAAAAAAAGGAAAGGAAAGUAUUAUGUUACGCCGUUCGGAUCUGCACUUCC | -1.43 |
| UCUCCCCAGGAGCACAGAAAAUGGUUCUGCCCCCUCCACAGCUCCCACAGACCAGAGCCGGCCACCGUUGGAGGUGAGUCGCCCGCCCCU | 0.326 |
| UGGGAGGUGGAUUUUGUUUAUUUUUUUAGCUCAUUUCCAGGGGUGGGAAUUUUUUUUUAAUAUGUGUCAAGAAUAAAGUUGUUUUUGAAA | 2.69 |
| GUCCUGUGCUACACAUCGUAUGUACCGAAUCAAAUUUAAAUUUUUUUAAAUUUUUAAAAAAGUAUUAUGUUACGCCGUUCGGAUCUGCAC | -2.61 |
| AAGUCCUGUGCUACACAUCGUAUGUACCGAAUCGGGUUUUGGGUUUUGGGGUUUUGGAAAGUAUUAUGUUACGCCGUUCGGAUCUGCACU | -0.94 |

Further values, each from its own experiment
| Substance | target | assay | test system | conditions | scale | measurement | value |
| --- | --- | --- | --- | --- | --- | --- | --- |
| PhoQ, residues 284 288 289 292 302 303 ALSMDL | PhoP, residues 12 14 15 18 19 NHTVL (Escherichia coli, UniProt P23836) | Sort-seq, refers to: YFP reporter | E. coli | PhoQ-PhoP variant library, added: 10 µM Mg2+ | relative to: high Mg2+ state, higher = stronger signaling | fold induction | 5.2 |

Repeated from above (block 3):
| Strand | log fluorescence [z-score] |
| --- | --- |
| GACGGTCCCCTACTGCTGACGTGCTAG | -0.513 |
| GACGGTTTCGGTTCCGCGACGTGCTAG | 9.67 |
| AACGAACTGAGTATCGAGACGTGCTAG | 2.09 |
| GACGGACTGCTACTGCTCACGTGCTAG | -0.69 |
| TCAATAATGGATATATAACTGTGCTAG | 0.487 |
| GACGGTATGGACACTGGGGACGTGCTA | -0.0786 |
| TTAGGTTTCAGTCTCGGTTAGTGCTAG | 5.03 |
| TTAGGACTGCTACAGCTTTAGTGCTAG | -0.437 |
| AACATACTGATTTCCACTTTGTGCTAG | 0.674 |
